Results collected from several papers.
Each line is one published result; not all experiments were run side by side. “And” joins repeats or separate records; there may be more than shown. ± gives the spread as reported.
UniProt P28482, sequence (whole entry, looked up): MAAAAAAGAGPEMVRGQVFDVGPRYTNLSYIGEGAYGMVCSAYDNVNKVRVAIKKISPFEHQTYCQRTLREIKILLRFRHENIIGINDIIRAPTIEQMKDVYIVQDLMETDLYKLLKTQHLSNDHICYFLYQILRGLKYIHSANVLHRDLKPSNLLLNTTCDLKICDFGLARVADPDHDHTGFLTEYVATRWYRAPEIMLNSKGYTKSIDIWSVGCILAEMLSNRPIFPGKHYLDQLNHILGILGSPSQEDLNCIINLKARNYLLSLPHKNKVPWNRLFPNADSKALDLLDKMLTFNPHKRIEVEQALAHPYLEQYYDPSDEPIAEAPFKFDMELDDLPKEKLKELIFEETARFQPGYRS
UniProt P46089, sequence (whole entry, unmodified, looked up): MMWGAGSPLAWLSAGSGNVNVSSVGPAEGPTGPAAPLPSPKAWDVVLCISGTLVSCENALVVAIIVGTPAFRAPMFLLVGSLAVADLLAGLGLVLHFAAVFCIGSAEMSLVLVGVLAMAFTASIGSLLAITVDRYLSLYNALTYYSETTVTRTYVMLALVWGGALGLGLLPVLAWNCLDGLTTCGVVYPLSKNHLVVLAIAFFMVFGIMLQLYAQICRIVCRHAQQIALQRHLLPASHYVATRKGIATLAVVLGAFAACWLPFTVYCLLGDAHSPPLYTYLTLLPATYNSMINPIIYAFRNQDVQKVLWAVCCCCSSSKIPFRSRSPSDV
UniProt Q8H1R0, sequence (whole entry, looked up): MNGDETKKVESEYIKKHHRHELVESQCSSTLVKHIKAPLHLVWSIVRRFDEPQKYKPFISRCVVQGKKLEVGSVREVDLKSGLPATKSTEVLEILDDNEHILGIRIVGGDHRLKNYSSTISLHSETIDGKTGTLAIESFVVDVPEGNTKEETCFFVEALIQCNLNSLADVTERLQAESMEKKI
UniProt P45983, sequence (whole entry, looked up): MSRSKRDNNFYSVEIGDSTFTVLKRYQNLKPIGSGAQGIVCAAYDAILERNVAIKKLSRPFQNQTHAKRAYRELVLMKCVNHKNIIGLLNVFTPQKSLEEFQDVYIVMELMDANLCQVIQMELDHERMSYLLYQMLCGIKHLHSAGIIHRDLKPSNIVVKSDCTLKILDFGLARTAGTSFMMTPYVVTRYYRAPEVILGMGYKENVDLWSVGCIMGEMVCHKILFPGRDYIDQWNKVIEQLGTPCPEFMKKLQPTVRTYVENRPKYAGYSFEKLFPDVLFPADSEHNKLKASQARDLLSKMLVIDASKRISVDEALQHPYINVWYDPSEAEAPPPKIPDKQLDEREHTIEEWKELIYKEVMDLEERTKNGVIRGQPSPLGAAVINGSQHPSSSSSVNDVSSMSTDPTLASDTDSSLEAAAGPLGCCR
UniProt P20782, sequence (whole entry, unmodified, looked up): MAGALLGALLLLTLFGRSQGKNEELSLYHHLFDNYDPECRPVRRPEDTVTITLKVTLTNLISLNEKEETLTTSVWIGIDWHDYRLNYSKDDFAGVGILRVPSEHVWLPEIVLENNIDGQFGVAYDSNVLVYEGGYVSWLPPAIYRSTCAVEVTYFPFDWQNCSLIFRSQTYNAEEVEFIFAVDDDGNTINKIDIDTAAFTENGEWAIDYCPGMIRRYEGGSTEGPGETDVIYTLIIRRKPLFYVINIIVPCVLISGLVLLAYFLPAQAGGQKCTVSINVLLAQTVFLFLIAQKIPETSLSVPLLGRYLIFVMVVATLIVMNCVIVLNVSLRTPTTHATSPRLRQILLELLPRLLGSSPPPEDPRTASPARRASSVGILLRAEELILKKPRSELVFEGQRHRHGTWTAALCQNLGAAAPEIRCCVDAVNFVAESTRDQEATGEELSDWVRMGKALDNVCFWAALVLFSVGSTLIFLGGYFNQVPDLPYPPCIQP
UniProt P04756, sequence (whole entry, unmodified, looked up): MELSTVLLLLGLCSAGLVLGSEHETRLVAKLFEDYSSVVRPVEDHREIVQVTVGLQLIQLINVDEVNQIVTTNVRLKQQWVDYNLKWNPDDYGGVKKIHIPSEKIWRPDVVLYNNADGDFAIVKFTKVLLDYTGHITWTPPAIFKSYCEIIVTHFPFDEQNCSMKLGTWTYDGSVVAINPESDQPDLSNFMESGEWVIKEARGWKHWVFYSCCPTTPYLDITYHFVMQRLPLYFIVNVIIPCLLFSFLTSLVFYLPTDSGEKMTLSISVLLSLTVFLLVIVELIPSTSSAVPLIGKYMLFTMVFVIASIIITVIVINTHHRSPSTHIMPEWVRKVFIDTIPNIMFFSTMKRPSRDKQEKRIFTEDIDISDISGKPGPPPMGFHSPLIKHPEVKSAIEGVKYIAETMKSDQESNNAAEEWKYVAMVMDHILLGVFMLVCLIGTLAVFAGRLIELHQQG
UniProt O75385, sequence (whole entry, looked up): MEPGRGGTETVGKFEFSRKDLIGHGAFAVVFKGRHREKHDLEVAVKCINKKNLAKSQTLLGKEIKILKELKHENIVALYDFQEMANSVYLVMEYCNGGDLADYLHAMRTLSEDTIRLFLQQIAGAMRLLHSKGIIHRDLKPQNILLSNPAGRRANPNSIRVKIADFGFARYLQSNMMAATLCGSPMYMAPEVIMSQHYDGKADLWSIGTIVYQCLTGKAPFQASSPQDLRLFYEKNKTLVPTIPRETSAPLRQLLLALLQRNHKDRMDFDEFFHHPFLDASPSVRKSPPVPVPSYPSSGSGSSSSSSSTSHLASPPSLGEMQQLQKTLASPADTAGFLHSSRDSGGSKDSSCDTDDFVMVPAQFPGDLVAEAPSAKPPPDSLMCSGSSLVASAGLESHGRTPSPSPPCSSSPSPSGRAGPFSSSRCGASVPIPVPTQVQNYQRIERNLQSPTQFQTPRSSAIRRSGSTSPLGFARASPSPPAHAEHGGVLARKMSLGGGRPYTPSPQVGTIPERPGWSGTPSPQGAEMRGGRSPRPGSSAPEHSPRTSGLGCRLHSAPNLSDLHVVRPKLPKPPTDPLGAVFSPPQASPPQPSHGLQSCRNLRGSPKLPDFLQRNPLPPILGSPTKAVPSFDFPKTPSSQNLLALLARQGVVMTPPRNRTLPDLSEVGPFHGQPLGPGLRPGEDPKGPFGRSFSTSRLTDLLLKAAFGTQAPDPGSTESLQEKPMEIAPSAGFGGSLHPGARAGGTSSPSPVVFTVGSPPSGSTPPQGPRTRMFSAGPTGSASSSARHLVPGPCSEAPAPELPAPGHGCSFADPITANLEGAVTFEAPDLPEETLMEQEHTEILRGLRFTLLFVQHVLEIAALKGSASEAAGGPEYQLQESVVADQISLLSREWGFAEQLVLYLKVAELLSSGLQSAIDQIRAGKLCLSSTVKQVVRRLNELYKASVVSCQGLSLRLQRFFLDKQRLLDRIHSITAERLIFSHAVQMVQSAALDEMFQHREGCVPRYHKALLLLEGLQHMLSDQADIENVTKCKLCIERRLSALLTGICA
UniProt Q6V1X1, sequence (whole entry, looked up): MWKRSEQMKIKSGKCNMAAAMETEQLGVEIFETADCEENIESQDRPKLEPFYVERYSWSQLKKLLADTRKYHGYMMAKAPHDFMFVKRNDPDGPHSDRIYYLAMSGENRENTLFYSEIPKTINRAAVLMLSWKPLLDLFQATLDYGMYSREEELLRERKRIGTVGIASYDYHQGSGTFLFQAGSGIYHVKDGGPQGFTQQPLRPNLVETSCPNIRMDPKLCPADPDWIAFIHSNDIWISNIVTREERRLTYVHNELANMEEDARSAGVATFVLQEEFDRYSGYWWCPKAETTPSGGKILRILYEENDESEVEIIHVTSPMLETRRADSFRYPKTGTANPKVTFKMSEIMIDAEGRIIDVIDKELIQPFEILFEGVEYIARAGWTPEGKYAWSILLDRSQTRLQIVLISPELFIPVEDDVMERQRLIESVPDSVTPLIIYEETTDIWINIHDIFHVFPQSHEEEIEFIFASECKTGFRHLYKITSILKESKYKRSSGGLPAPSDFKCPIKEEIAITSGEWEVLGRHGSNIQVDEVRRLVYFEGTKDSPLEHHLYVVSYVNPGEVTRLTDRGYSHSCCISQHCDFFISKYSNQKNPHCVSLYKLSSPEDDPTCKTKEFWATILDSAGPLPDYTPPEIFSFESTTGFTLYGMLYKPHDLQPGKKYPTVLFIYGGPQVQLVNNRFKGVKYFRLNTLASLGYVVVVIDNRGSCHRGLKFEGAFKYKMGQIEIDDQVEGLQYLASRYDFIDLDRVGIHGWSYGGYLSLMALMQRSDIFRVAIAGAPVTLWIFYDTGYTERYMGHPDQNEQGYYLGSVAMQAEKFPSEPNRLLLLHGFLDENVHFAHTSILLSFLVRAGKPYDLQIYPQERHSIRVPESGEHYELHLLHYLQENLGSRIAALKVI
UniProt P16591, sequence (whole entry, looked up): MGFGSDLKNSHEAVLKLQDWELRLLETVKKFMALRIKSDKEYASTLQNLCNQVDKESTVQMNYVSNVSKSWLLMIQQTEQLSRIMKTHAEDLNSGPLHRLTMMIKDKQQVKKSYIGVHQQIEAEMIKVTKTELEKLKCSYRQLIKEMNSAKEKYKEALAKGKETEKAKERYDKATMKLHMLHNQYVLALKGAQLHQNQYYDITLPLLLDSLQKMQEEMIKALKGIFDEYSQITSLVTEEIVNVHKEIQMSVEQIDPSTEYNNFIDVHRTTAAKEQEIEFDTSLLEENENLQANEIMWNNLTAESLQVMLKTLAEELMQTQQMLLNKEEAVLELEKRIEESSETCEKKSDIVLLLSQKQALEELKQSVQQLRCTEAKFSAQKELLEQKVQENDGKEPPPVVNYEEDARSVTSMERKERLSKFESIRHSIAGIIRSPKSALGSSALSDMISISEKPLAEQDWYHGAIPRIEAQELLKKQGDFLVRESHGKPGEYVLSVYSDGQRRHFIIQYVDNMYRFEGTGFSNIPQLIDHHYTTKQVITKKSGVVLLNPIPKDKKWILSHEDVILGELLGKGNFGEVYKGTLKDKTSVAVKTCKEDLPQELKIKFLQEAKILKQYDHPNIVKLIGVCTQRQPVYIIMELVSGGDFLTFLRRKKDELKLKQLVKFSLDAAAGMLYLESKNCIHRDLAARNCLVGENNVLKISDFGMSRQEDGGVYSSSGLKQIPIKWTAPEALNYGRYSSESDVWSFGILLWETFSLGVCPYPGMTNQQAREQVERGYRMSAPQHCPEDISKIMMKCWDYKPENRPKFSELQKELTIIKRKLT

O=[N+]([O-])c1cc(Br)cc([N+](=O)[O-])c1NS(=O)(=O)c1ccc(Br)cc1 — HAB1 phosphatase activity (PYL10, with HAB1 (Arabidopsis thaliana, UniProt Q8H1R0); antagonist; 40 µM, added: ABA 5 µM; higher = more HAB1 activity): 0.084 a.u. and 0.089 a.u. and 0.085 a.u.
CCC1(CC)C(=O)N(c2cccc(C)c2)C1=O — activity vs control (Dipeptidyl peptidase 8 (Homo sapiens, UniProt Q6V1X1); enzyme activity, inhibitor; 5 µM): > 90%
COC(=O)[C@@]1(Cc2ccccc2)C=C(C(=O)OC(C)(C)C)C(=O)CC1 — fraction bound (MAPK8 (Homo sapiens, UniProt P45983); D-peptide binding, inhibitor, FP peptide displacement; 1000 µM; lower is stronger displacement): -0.0646
CCCCCCCCCCCCC/C=C/C=O — isoTOP-ABPP competition ratio (Elongation factor 2, Cys41 (EEF2, Homo sapiens, UniProt P13639); competitive isoTOP-ABPP; Ramos soluble proteome; 100 µM, 60 min, added: iodoacetamide probe; baseline: DMSO over compound-treated, higher = stronger cysteine blockade): 1
CC(C)=CCc1cc(C(=O)/C=C/c2ccc(O)cc2)c(O)cc1O — substrate inhibition constant Ki (phase I metabolism; rat liver microsomes): 20.7 ± 3.75 µM
Cc1nn(-c2cccc(N)c2)c(=O)c2cnc(Nc3ccc(N4CCNCC4)cc3)nc12 — IC50 (FER (Homo sapiens, UniProt P16591); enzyme activity, inhibitor): > 10 µM
Cc1cc(C(=O)O)cc(COC(=O)N(C)C(=O)c2ccc(N3C(=S)N(c4ccc(C#N)c(C(F)(F)F)c4)C(=O)C3(C)C)cc2F)c1OP(=O)(O)O — drug formation rate (Alkaline phosphatase, placental type (Homo sapiens, UniProt P05187); substrate; 100 µM, pH 7.6, 37 °C): 2.97 pmol/min
Nc1ncc(-c2cc(-c3cnn(CC(F)(F)F)c3)ncc2F)nc1C(=O)NC1CNCC(F)C1 (stereo not shown) — remaining binding (CAMK2G; KINOMEscan; 1 µM; baseline: DMSO control): 96%
COC1CN([C@H]2CC[C@H]([C@@]3(C)Oc4c(Cl)cc(C(=O)NCc5c(SC)cc(C)[nH]c5=O)c(C)c4O3)CC2)C1 — log2 fold change (RNA-seq, item: PLVAP mouse homolog; mouse, HT-1376 xenograft, whole blood; dose not given; baseline: vehicle): 0.515
C[N+]1(C)CCCC1 — koff (Chrnd/Chrna1/Chrne (Mus musculus, UniProt P02716+P04756+P20782, G173K/S470W); single-channel kinetics; K chain side site): 3340 s⁻¹
C=CC(=O)Nc1cccc(Cn2ncc3cnc(Nc4cnn(CCOC)c4)nc32)c1 — binding (human CDK4-cyclinD1; KINOMEscan; 100 nM; baseline: control): 78%
CC(C)Oc1cc(Cl)ccc1CNc1cc(-c2ccccc2)nc2ncnn12 — cAMP luminescence (GPR3 (Homo sapiens, UniProt P46089, L136A); cAMP level, cAMP GloSensor; 10 µM; higher = more cAMP): 22500 a.u. and 16300 a.u. and 17500 a.u. and 18800 a.u.
CC(C)[C@@H]1NC(=O)[C@H](Cc2ccccc2)NC(=O)CSC[C@@H](C(N)=O)NC(=O)[C@H](CCC(=O)O)NC(=O)[C@H](CO)NC(=O)[C@H](Cc2c[nH]c3cccc(Cl)c23)NC(=O)[C@H](C2CCCCC2)NC(=O)[C@H](C(C)C)NC(=O)[C@H](Cc2ccc(O)cc2)NC(=O)[C@H](CC(=O)O)NC(=O)[C@H](Cc2c[nH]c3ccccc23)NC(=O)[C@H](Cc2ccc(N)nc2)NC(=O)[C@H](Cc2c[nH]c3ccc(Cl)cc23)NC(=O)[C@H](CCC(=O)O)NC1=O — remaining activity (Interleukin-1 receptor-like 2 (IL1RL2, Homo sapiens, UniProt Q9HB29); reporter gene (SEAP), inhibitor, HEK-Blue IL-36R reporter; HEK-Blue IL-36R cells; 0.005 µM, 6 h, added: IL-36γ 100 ng/mL): 98.9%
C#CCOC(=O)[C@]1(C)C=C(C(=O)OC(C)(C)C)C(=O)CC1 — normalized kinase activity (MAPK1 (Homo sapiens, UniProt P28482); enzyme activity, D-SENSOR; 133.3 µM, single replicate): 0.123 and 0.105 and 0.0861
Cc1ccc(C(=O)N2CCN(CC(OCc3ccc4ccccc4c3)c3ccc(Cl)cc3Cl)CC2)cc1 (stereo not shown) — activity vs control (ULK1 (Homo sapiens, UniProt O75385); enzyme activity, inhibitor, ADP detection; 0.1 µM): 117%
Fc1ccc(Nc2nc(NC3CCCCC3)c3cc(C(F)(F)F)ccc3n2)cc1F — maximal inhibition (ADRB2 (Homo sapiens, UniProt P07550, L155C); β-arrestin2 recruitment, antagonist, BRET; mutant L155C; baseline: isoprenaline maximal response): -8.8%
C[C@@H]1C[C@H](Nc2ccccc2)c2cc(F)ccc2N1C(=O)c1ccc(F)cc1 — pIC50 Z-score (Ecdysone receptor (Aedes albopictus, UniProt Q9U3Y4); ligand binding, inhibitor; intact cells; added: [3H]ponasterone A; direction not given): -0.94
O=C(Cc1ccc(OCc2ccccc2)cc1)NC1(C(=O)O)CCN(C(=O)c2ccc(-c3cccc(Cl)c3)cc2)CC1 — activity vs control (ATM (Homo sapiens, UniProt Q13315); enzyme activity, inhibitor; 10 µM): 88%
Cc1ncsc1-c1ccc(C(C)NC(=O)C2CC(O)CN2C(=O)C(NC(=O)CCCCCCCCCCN2CCCC(Nc3ncc(Cl)c(Nc4ccccc4S(=O)(=O)C(C)C)n3)C2)C(C)(C)C)cc1 (stereo not shown) — log2 fold change (22Rv1; RNA-seq, item: SLF2 mRNA; concentration not given; baseline: DMSO): -1.28

For quick reference, copied from above:
CC(C)=CCc1cc(C(=O)/C=C/c2ccc(O)cc2)c(O)cc1O — substrate inhibition constant Ki (phase I metabolism; rat liver microsomes): 20.7 ± 3.75 µM
